Measurements from different studies.
Each line is one published result; not all experiments were run side by side. “And” joins repeats or separate records; there may be more than shown. ± gives the spread as reported.

`COc1ccc(Cn2cc(CO[C@@H]3O[C@H]4[C@H](OC[C@H]4O)[C@H]3O)nn2)cc1`: viability “not toxic” (HPAF-II; cytotoxicity, CellTiter-Glo; up to 30 µM, 72 h).
`CCc1c(-c2ccccc2)c(-c2ccccc2)nn1-c1ccccc1-c1cccc(OCC(=O)O)c1` gave a viability of 100% and 87.9% and 90.8% and 91.2% and 94.5% (mouse bone marrow macrophages; CCK-8; 5 µM, 4000 cells; reference: untreated).
The viability of `CC(=O)OC[C@H]1O[C@@H]([Se]Cc2ccc3ccccc3n2)[C@H](OC(C)=O)[C@@H](OC(C)=O)[C@@H]1OC(C)=O` is reported as 46.6 ± 12.8% (THP-1 macrophages (PMA-differentiated); WST-1; 50 µM, 24 h).
For `c1ccc(-c2ccc(CNCC3(N4CCCC4)COC3)s2)cc1`, the viability was 58.6% (HEK; 30 µM, 48 h, 10% FBS; reference: DMSO).
`O=C(O)c1cc(SSc2ccc([N+](=O)[O-])c(C(=O)O)c2)ccc1[N+](=O)[O-]`: viability “not toxic” (DU-145; MTT; concentration not given).
For `Fc1ccc2c(CNCC3(N4CCC(F)C4)COC3)c[nH]c2c1` (stereo not shown), the viability was 35.4% (HEK; 30 µM, 48 h, 10% FBS; reference: DMSO).
The viability of `COc1ccc2c(C[Se][C@@H]3O[C@H](CO)[C@H](O)[C@H](O)[C@H]3O)cc(=O)oc2c1` is reported as 126 ± 5.5% (THP-1 macrophages (PMA-differentiated); WST-1; 50 µM, 24 h).
The viability of `c1ccc(-c2ccc(CNCC3(N4CCCC4)COC3)o2)cc1` is reported as 0.35% (HEK; 30 µM, 48 h; reference: DMSO).
Under viability, `O[C@H]1[C@H](OCc2cn(Cc3ccc(F)cc3)nn2)O[C@H]2[C@@H]1OC[C@H]2O` is recorded as “not toxic” (HPAF-II; cytotoxicity, CellTiter-Glo; up to 30 µM, 72 h).
`CCc1nc(N)nc(N)c1-c1ccc(Cl)cc1` has a viability of 108% (uninfected human foreskin fibroblasts; MTT; 25 µM, 48 h).
For `CC(=O)Nc1cccc(-n2c(=O)n(C3CC3)c(=O)c3c(Nc4ccc(I)cc4F)n(C)c(=O)c(C)c32)c1`, the viability was 0.744 and 0.654 (LoVo (KRAS G13D); resazurin; 6.25 nM, 72 h, unit not given; reference: DMSO).
`FC1CCN(C2(CNCc3ccc(-c4ccccc4)o3)COC2)C1` (stereo not shown) has a viability of 54.4% (HEK; 30 µM, 48 h, 10% FBS; reference: DMSO).
For `[Cl-].[Cl-].[Zn+2]`, viability read “not toxic” (DU-145; MTT; concentration not given).

Some of these lines once more:
`O=C(O)c1cc(SSc2ccc([N+](=O)[O-])c(C(=O)O)c2)ccc1[N+](=O)[O-]`: viability “not toxic” (DU-145; MTT; concentration not given).
